# Experimental data pooled from the literature.
# Parts stem from different laboratories: compare values within a part only.

# Study 1
# Target: Prothrombin, mature alpha-thrombin (F2, Homo sapiens, UniProt P00734)
# Technique: aptamer microarray, sandwich
# Form: DNA with 2'F-ANA
# Matrix: in vitro
# Tested at: 200 nM
# Notes: whole 15-mer aptamer, many near background
# With: Cy3 exosite-II aptamer, 400 nM
# Reading: higher = stronger binding
# Sequence: GGTTGGTGTGGTTGG
Modification,mean fluorescence intensity
2'F-ANA at 1 6 7 8 9 12 13 15,298 a.u.
2'F-ANA at 3 8 9 10 11 15,474 a.u.
2'F-ANA at 2 4 6 10 13,71.1 a.u.
2'F-ANA at 3 12 14 15,861 a.u.
2'F-ANA at 1 9 12 13 15,315 a.u.
2'F-ANA at 2 4 5 6 7 8 9 11 13,58.6 a.u.
2'F-ANA at 1 3 4 7 8 9 11 12 13 14,79.8 a.u.
2'F-ANA at 3 8 14,667 a.u.
2'F-ANA at 1 3 4 6 9 10 12 14 15,100 a.u.
2'F-ANA at 5 7 8 9 10 13,44.7 a.u.
2'F-ANA at 2 3 4 5 9 13 15,84.3 a.u.
2'F-ANA at 1 3 5 6 7 10 11 14,47.5 a.u.
2'F-ANA at 1 2 3 5 6 10 13 15,46.5 a.u.
2'F-ANA at 2 3 6 8 11 12 13,801 a.u.
2'F-ANA at 2 4 5 6 7 10 13 15,51.3 a.u.
2'F-ANA at 1 4 7 10,51.8 a.u.
2'F-ANA at 2 3 4 7 10 12 13,293 a.u.
2'F-ANA at 1 5 6 7 8 11 12 14 15,50.3 a.u.
2'F-ANA at 1 3 6 9 11 12 13 14 15,89.9 a.u.
2'F-ANA at 1 4 6 7 10 11 12 13 14 15,48.7 a.u.
2'F-ANA at 1 2 3 5 6 8 10 11 13 15,86.8 a.u.
2'F-ANA at 1 7 9 11 13 15,118 a.u.
2'F-ANA at 2 3 5 6 12 13 14 15,54.7 a.u.
2'F-ANA at 3 4 8 9 10 13 14,206 a.u.
2'F-ANA at 2 5 6 9 11 13 15,52.8 a.u.

# Study 2
# Target: RNA binding protein fox-1 homolog 2, RRM domain, GST-SBP tag (RBFOX2, Homo sapiens, UniProt O43251-10, residues 100-194)
# Technique: RNA Bind-n-Seq
# Form: RNA
# Matrix: in vitro
# Tested at: 365 nM
# Notes: natural RNA segment, single round, ends assumed
# Reference: no-protein control
# Reading: higher = stronger binding
# Target sequence (chain): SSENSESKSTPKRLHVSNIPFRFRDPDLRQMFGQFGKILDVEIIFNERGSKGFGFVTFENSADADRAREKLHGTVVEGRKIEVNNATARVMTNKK
Sequence,RBNS enrichment (R)
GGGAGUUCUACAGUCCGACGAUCUCACCAGAUGGGCUUCCAUUCACCUUCGGACCCAGGGCCUCCAAGCCACACAGCUAUUCUUUGGCCAGACCCUCACUACAGUAACUCAUCAACUCUGGCUCUUGUAGGGGUGGAAUUCUCGGGUGCCAA,0.588
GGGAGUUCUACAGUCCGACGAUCUAUACACCAAAAAGAAAUCUUUACUUUCCUUGUGUUAUAAAAAUAAUAAAAAUAUUUUACUAGUAUGAAAUCACAAGCAUGUUUGACUUCAGUGGGACAUUUGACAGCUGUGGAAUUCUCGGGUGCCAA,0.877
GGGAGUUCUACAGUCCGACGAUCAGGCUUUGGGGACCUCUGUUCCUGGGCCACCCUGCCCGUGGGCACCCUCUACCUUGGGGCACGUUCUAGCACCCCAUUCCUGACUCCUGGAAGAUGCACUUGCCCCGACAUGGAAUUCUCGGGUGCCAA,0.612
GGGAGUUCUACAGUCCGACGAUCGCCAAAUAUCUGGGUUUCCCCCUCUCCUCAUUCCCUAGCAAACCCCAAUUAUCUUCCAAGAUAGGAGAUAUUUCCCAUCCCCUUCCUUUGUAAAUAUCUCAUCUCCCACUUGGAAUUCUCGGGUGCCAA,1.13
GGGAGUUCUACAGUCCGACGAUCGGGCAGACUGUUCUCUCAUAGUCUUAUCUGUUUGAAUAUUCCUGGGUAUGACUUUAUGUGUGGCAAAAACCCACAUUACCAAAGUAGUUUUUAACUACUGUAAUUUGUAAUGGAAUUCUCGGGUGCCAA,0.405
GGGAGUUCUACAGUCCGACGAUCAGAGGCAGGAUGUAAGACACACUGUGUUGCAUUCUUGCACAAGUCAUGAAAAUGGAGCCAGAGAGCCUGGACAUCAGGGACUUUUGCCCACAGCACAUGACACCGACAGCUGGAAUUCUCGGGUGCCAA,0.193
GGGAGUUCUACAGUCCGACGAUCUGUAGUUUUAACCAAAAAAGUGCCCUUUUUGUCACUGGAUUCUCCUAGCAUUCAUGAUUUUUUUUUCAUACAAUGAAUUAAAAUUGCUAAAAUCAUGGACUGGCUUUCUGUGGAAUUCUCGGGUGCCAA,0.345
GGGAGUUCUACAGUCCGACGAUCAUUGAAAUAAAACUCAAACCACACUGCGGUUGUUGUCUUAAUGAUUAAAUGUUCCGUUUCUAGCUGGAUGGUCUUUGCUACAGAGUAUUCGAUUUCUUUUUAGUAGACGUUGGAAUUCUCGGGUGCCAA,0.425

# Study 3
# Target: RING finger protein unkempt homolog, zinc fingers 1-6, GST-SBP tag (UNK, Homo sapiens, UniProt Q9C0B0, residues 30-357)
# Sequence of UniProt Q9C0B0 (30-357, looked up): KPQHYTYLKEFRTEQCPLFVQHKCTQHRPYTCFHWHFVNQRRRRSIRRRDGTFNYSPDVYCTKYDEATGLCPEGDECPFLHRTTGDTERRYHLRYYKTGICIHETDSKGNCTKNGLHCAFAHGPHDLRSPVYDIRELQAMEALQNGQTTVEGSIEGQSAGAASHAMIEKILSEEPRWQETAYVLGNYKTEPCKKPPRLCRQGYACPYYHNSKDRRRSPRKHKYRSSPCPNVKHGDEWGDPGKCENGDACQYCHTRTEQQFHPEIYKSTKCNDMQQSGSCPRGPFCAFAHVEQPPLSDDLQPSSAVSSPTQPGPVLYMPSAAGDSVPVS
# Technique: RNA Bind-n-Seq
# Form: RNA
# Matrix: in vitro
# Tested at: not given
# Notes: RNA with constant flanks, human and mouse sites, ends assumed
# Reference: input RNA pool
# Reading: higher = stronger binding
Sequence,bound/input enrichment [ratio]
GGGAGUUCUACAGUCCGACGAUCGUAGCCUUAUAUGAAGAACCAGAGAAGCCCACCAGUGCUCUGGAUUUUUUAAAGCAUCACUUAGGAGCUGCUACCCCGGAAAACCCAGAAAUAGAGCUGCUUCGCCUAGAAUUGGCAGAACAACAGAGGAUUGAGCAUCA,0.781
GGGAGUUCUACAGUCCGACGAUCGUUUUAAAAAUGAACUUCUCCCGCUACACAGAAGUAACAAAUAUGGUAGUCAGUUUUGUAUUUAGAAAUGUAUUGGUAGCAGGGAUGUUUUCAUAAUUUUCAGAGAUUAUGCAUUCUUCACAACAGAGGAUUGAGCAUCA,2.84
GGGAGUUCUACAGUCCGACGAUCACAGAAAAUAGCAGCGCAGUGUUACUCCAGUGGCACGAAAAGGCCUUAGCAGUAGGAGGACUAGGCUCCAUUAUAAGAGUUCUUACAGCAAGAAAGACUGUUUAAAAAAAAUAAAAAGACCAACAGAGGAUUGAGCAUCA,0.507
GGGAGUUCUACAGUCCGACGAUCUCUCUUCUCUUAAGUUAUGGUGCAGACCCAACACUGCUCAAUUGUCACAAUAAAAGUGCUAUAGACUUGGCUCCCACACCACAGUUAAAAGAAAGAUUAGCAUAUGAAUUUAAAGGCCACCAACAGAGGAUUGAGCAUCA,6.11
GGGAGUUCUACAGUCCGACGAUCCCAAGCACUGGAACACUUCCACCAUCUCUCUCUGCUUAUCAGCAUCCCACCACCUUCAGCAAUAGAAACUUUGCUACCACUUCACCUUUGGUGCUUCAGGAUUCAACUUUUAACACUACACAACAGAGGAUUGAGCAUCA,0.754
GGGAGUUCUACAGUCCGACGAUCAAGGUUAAGUACCACAUUCUCCUCUAAACCUUGCCUACGACAUGUUUAAUACUUCAUCUACAUAGCAGCCCUUCAGAUAAUCACAACCACUUUGCCCCCAAGUUUUCAGGUUAAGUAGCACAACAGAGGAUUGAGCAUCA,2.63
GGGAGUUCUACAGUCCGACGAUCGCCAGCAAGCCGCAGACCAUUCAAGAAUCAACAGGUGGUAUAGUCGAAGUUUUACAUAAGGUAGAUUCAGAAGGAAUCUCACCAAACCGUACCAGUCACGCGGCACCUGCAGCCACGUCACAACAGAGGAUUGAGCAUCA,0.25
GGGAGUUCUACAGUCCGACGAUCAUAACGUGUAAAGCUCACUCUUUCACCCUGGAACAGACAAGAGGUGGGCUUAAUAGAGGCAGAGACUGGGGAUAUACCUUUGUUUCCCUAGCAUUUUUAUUUAUUUAUUUUUAUUUUAUUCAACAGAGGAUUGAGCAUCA,353

# Study 4
# Target: Histone acetyltransferase KAT6A, winged helix 2, GST fusion (KAT6A, Homo sapiens, UniProt Q92794, residues 85-181)
# Technique: protein binding microarray
# Form: double-stranded DNA, one strand shown
# Matrix: in vitro
# Tested at: not given
# Notes: 8-mer, flanks averaged, mean of 2 arrays, mostly near background
# Reference: not given
# Reading: higher = stronger binding
# Construct (chain): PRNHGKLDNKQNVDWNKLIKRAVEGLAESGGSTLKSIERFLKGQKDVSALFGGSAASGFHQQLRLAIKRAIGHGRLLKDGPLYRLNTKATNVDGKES
Sequence,E-score
CGCAGCCG,0.0656
CCACCATA,-0.024
CGTGGATC,-0.0713
GAAGCGTA,0.00321
CTTAGTCC,0.0198
ATGAACGG,-0.136
TTACGCAA,0.0729
ACCACAGC,0.0272
AAAAGCGC,0.0311
CGCGGCAA,0.119
CACCGTCA,-0.00169
TTAAGGAA,-0.0155
AGGCGACG,0.0111
TCCAAACA,-0.0385
AATAGCGA,-0.0797
GGAACACC,0.00883
TAGTGGCA,0.0164
CGGACATC,-0.155
CTAGACGA,-0.0696
TAGACCGA,0.0377
AAGAGCGG,0.076
AGTTACTG,-0.196
CATAACAG,-0.0637
CCGTAGAG,0.0178

# For quick reference, copied from above (study 3):
Sequence,bound/input enrichment [ratio]
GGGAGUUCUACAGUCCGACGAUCGUAGCCUUAUAUGAAGAACCAGAGAAGCCCACCAGUGCUCUGGAUUUUUUAAAGCAUCACUUAGGAGCUGCUACCCCGGAAAACCCAGAAAUAGAGCUGCUUCGCCUAGAAUUGGCAGAACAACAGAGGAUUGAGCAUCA,0.781
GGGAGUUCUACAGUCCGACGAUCGUUUUAAAAAUGAACUUCUCCCGCUACACAGAAGUAACAAAUAUGGUAGUCAGUUUUGUAUUUAGAAAUGUAUUGGUAGCAGGGAUGUUUUCAUAAUUUUCAGAGAUUAUGCAUUCUUCACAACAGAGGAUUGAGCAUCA,2.84
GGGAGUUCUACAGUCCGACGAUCACAGAAAAUAGCAGCGCAGUGUUACUCCAGUGGCACGAAAAGGCCUUAGCAGUAGGAGGACUAGGCUCCAUUAUAAGAGUUCUUACAGCAAGAAAGACUGUUUAAAAAAAAUAAAAAGACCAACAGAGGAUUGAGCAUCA,0.507
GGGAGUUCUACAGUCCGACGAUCUCUCUUCUCUUAAGUUAUGGUGCAGACCCAACACUGCUCAAUUGUCACAAUAAAAGUGCUAUAGACUUGGCUCCCACACCACAGUUAAAAGAAAGAUUAGCAUAUGAAUUUAAAGGCCACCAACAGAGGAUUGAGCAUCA,6.11
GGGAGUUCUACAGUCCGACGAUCCCAAGCACUGGAACACUUCCACCAUCUCUCUCUGCUUAUCAGCAUCCCACCACCUUCAGCAAUAGAAACUUUGCUACCACUUCACCUUUGGUGCUUCAGGAUUCAACUUUUAACACUACACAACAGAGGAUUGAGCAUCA,0.754
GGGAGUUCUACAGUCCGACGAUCAAGGUUAAGUACCACAUUCUCCUCUAAACCUUGCCUACGACAUGUUUAAUACUUCAUCUACAUAGCAGCCCUUCAGAUAAUCACAACCACUUUGCCCCCAAGUUUUCAGGUUAAGUAGCACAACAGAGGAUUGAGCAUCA,2.63
